Experimental data gathered from unrelated publications.
Protocols differ between the studies behind these lines. Numbers after ± are the reported error.

CCOC(=O)[C@H](C)C[C@@H](Cc1ccc(-c2ccccc2)cc1)NC(=O)CCC(=O)O  fractional shortening (rat high-fat streptozotocin diabetes; drinking water, 18 mg/kg/day, 6 weeks, together with: ANP 2 pmol/kg/min s.c.): ~50%
Cc1cc(NC(=O)[C@H](O)c2cc(F)cc(F)c2)ccc1-c1cnc(N)c(C(=O)NC(C)C)c1  tumours in complete cytostasis (MMTV-HER2 female mice; dose not given, over 2 weeks): 43%
CC1=C(C(=O)Cl)C(c2ccccc2C#N)NC(=S)N1 (stereo not drawn)  mean arterial pressure (carotid artery cannulation; male Wistar rats, anaesthetised; 0.3 mL, 3 h): 27 ± 1.44 mm Hg
CCN[C@@H]1C[C@H](N)[C@@H](O[C@H]2OC(CN)=CC[C@H]2N)[C@H](O)[C@H]1O[C@H]1OC[C@](C)(O)[C@H](NC)[C@H]1O  IC50 ([14C]-phenylalanine incorporation, inhibitor, (UUU)12-directed cell-free translation; M. smegmatis 70S ribosomes, human cytosolic hybrid decoding site; 60 min, 37 °C): > 500000 nM
Cc1ncc(COCc2cn(Cc3ccccc3C(F)(F)F)nn2)c(CO)c1O  absorbance change (Zn2+ chelation; 100 µM, 30 min, 37 °C, together with: Zn2+ 100 µM): 0%
CN[C@@](C)(C[18F])C(=O)O  tissue uptake (SCID mouse DU-145 xenograft, brain; 30 min, post injection): 0.4 ± 0.1 %ID/g
O=C(NCc1ccc(-c2ccccc2)cc1)c1cccc(=O)n1O  ventricular weight (rat, isolated perfused stunned heart; dose not given, 20-25 min ischaemia, 30 min reperfusion): 58.7 ± 2.1 mg
CC[C@@H]1NC(C)(C)CO[C@@]1(O)c1cccc(Cl)c1  ED50 (nicotine antinociception blockade, antagonist, tail-flick test; mouse; 15 min pretreatment, together with: nicotine 2.5 mg/kg subcutaneous): 4 µg/kg
Cc1ccc2cc3c(ccc4ccccc43)c3c2c1CC3  minimal protective dose (adrenal haemorrhage prevention; rat; oral, together with: 7,12-DMBA 5 mg i.v.): 0.25 mg
CC[C@H](C)[C@H](NC(=O)[C@H](Cc1ccc(O)cc1)NC(=O)[C@@H](NC(=O)[C@@H]1CCCN1C(=O)[C@H](CCCNC(=N)N)NC(=O)[C@H](CC(N)=O)NC(=O)[C@H](CC(N)=O)NC(=O)[C@H](CCCN)N=C(N(C)C)N(C)C)C(C)C)C(=O)N1CCC[C@H]1C(=O)N[C@@H](CCCNC(=N)N)C(=O)N1CCC[C@H]1C(=O)N[C@@H](CCCNC(=N)N)C(=O)N1CCC[C@H]1C(=O)N1CCC[C@H]1C(=O)N[C@@H](Cc1c[nH]cn1)C(=O)N1CCC[C@H]1C(=O)N[C@@H](CCCNC(=N)N)C(=O)N[C@@H](CC(C)C)C(=O)O  Kd (binding, fluorescence polarization; 70S ribosome, Escherichia coli BW25113; 90 min, pH 7.6, 28 °C, together with: fluorescein-labelled peptide): 379 ± 22 nM
CCCCCOc1ccc(-c2ccc(-c3ccc(C(=O)N[C@H]4C[C@@H](O)[C@@H](O)NC(=O)[C@@H]5[C@@H](O)[C@@H](C)CN5C(=O)[C@H]([C@@H](C)O)NC(=O)[C@H]([C@H](O)[C@@H](O)c5ccc(O)cc5)NC(=O)[C@@H]5C[C@@H](O)CN5C(=O)[C@H]([C@@H](C)O)NC4=O)cc3)cc2)cc1  global response failure (patients, invasive candidiasis; dose not given, end of IV therapy): 12.5%
CC(=O)N[C@@H](CC(C)C)C(=O)N1CCC[C@H]1C(=O)N[C@@H](Cc1ccc(O)cc1)C(=O)N1CCC[C@H]1C(=O)N[C@@H](CCCCN)C(N)=O  transition enthalpy (DSC; SOPC/cholesterol 6/4 bilayers; 5 mol%, pH 7.40): 0.2 kcal/mol
Cc1[nH]c(/C=C2\C(=O)Nc3ccc(F)cc32)c(C)c1C(=O)NCCN1CCCC1  overall survival (dogs with lung metastatic osteosarcoma; dose not given, single agent): 89 days
CC(=O)N[C@@H](CC(C)C)C(=O)NCC(=O)N[C@@H](Cc1ccc(O)cc1)C(=O)NCC(=O)N[C@@H](CCCCN)C(N)=O  transition enthalpy (DSC; SOPC/cholesterol 6/4 bilayers; 10 mol%, pH 7.40): 0.3 kcal/mol
CC1=C(C(=O)Nc2ccccc2)C(c2ccccc2Br)NC(=S)N1 (stereo not drawn)  mean arterial pressure (carotid artery cannulation; male Wistar rats, anaesthetised; 0.3 mL, 3 h): 21.3 ± 1.34 mm Hg
